Experimental data of several laboratories.
Numbered parts are unrelated; each lists some results of a single study.
Chain of UniProt P10721 (whole entry, unmodified, looked up): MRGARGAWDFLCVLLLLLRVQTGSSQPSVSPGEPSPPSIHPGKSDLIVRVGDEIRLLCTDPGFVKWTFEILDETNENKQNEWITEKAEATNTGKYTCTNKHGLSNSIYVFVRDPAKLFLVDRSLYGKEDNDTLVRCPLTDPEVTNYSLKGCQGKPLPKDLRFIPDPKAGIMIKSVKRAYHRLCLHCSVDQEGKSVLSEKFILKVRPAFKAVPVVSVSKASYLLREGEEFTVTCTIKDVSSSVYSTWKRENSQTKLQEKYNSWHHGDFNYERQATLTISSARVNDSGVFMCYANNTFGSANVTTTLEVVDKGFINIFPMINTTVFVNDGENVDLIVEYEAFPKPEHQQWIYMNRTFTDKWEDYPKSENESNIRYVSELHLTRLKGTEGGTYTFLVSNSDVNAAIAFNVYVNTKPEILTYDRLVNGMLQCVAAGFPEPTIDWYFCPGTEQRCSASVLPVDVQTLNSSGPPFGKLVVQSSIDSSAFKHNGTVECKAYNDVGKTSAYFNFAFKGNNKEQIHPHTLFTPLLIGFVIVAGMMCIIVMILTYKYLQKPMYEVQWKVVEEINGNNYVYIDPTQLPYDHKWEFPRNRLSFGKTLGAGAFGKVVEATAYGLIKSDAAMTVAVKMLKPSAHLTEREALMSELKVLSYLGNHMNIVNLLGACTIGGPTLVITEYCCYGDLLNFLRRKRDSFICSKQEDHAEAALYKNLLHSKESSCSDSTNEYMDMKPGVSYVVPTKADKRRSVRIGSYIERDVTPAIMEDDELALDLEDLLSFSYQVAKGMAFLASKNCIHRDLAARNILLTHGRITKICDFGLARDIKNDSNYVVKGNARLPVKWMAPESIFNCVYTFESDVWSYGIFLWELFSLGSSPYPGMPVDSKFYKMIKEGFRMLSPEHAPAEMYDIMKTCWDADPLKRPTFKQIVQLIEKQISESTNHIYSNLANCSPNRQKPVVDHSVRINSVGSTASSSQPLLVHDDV
Chain of UniProt P27448 (whole entry, looked up): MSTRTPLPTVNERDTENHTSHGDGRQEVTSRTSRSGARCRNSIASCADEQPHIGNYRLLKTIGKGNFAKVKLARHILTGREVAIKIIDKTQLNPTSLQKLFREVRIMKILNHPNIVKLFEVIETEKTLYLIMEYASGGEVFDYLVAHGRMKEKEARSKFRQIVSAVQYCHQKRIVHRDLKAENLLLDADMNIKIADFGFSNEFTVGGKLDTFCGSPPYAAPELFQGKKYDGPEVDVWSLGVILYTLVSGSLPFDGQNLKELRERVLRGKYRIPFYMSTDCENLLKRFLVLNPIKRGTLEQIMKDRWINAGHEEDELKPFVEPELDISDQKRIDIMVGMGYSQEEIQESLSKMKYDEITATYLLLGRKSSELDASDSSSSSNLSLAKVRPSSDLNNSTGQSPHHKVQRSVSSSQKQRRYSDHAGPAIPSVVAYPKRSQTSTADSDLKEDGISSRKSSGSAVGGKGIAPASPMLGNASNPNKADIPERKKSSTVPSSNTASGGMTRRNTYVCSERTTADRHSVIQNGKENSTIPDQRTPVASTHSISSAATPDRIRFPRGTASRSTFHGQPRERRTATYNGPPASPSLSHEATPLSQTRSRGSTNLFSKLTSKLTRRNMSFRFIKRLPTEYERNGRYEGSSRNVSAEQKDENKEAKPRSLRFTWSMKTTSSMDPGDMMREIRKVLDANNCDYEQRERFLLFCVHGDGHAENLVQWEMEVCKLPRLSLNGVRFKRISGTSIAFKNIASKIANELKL
Chain of UniProt Q86Z02 (whole entry, looked up): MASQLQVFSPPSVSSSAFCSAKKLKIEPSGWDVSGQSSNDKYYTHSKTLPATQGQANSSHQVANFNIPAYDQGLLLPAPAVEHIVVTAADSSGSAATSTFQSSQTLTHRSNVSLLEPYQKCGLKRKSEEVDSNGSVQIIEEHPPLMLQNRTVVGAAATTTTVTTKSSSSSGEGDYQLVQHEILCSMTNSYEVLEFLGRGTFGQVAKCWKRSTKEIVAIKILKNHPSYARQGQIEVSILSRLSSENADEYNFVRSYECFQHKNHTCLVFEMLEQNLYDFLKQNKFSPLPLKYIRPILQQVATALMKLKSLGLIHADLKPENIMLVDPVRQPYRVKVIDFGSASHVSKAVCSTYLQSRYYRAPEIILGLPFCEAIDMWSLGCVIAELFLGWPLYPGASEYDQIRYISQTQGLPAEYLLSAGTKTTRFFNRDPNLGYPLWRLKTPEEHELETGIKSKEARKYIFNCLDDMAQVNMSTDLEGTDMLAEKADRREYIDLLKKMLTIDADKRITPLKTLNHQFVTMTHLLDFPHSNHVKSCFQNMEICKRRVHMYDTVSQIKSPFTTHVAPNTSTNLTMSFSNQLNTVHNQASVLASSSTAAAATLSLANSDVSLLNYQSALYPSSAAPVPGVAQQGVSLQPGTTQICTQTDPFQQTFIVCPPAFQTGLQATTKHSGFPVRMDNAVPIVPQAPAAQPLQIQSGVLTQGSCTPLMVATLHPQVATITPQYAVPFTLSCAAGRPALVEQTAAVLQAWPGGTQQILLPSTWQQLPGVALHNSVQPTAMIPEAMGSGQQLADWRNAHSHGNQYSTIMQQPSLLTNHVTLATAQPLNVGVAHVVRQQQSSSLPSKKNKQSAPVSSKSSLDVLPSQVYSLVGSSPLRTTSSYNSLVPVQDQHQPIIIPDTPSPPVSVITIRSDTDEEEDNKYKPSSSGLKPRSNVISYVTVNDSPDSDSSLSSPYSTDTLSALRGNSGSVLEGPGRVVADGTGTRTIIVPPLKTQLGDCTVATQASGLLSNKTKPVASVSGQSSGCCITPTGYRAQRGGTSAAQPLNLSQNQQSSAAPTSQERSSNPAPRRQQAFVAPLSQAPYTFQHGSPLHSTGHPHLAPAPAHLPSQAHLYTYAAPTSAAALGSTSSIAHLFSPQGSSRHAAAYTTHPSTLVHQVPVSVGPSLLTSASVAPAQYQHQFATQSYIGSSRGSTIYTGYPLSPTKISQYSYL
Chain of UniProt O15530 (whole entry, looked up): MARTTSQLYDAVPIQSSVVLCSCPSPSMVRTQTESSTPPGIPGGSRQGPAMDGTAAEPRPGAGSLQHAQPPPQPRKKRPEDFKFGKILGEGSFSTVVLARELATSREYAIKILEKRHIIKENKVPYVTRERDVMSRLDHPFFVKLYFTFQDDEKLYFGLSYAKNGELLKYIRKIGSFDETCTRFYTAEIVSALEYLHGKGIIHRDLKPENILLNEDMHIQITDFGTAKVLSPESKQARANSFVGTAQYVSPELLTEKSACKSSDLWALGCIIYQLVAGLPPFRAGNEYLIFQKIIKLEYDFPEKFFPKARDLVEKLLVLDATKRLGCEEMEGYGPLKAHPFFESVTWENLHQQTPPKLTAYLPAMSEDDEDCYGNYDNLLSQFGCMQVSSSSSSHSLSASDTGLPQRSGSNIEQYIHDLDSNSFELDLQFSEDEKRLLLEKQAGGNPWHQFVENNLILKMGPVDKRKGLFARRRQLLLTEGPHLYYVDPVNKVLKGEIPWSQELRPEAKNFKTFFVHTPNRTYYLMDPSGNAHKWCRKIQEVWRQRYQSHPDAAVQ
Chain of UniProt P0C264 (whole entry, looked up): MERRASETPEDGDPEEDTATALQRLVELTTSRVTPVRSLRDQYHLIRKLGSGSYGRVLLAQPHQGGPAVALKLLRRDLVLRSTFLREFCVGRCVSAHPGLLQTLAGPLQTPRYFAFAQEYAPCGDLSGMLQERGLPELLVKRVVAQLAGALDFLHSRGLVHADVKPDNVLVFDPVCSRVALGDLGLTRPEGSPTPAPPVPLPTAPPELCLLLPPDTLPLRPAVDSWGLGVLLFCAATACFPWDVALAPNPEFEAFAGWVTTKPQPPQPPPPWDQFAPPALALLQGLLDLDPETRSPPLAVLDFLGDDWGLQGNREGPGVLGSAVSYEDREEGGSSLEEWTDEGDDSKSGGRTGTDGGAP

Set 1 — effect on: enzyme activity; action: inhibitor; concentration: 10 µM
Target: Calcium/calmodulin-dependent protein kinase type II subunit alpha (CAMK2A, Homo sapiens, UniProt Q9UQM7)
Chain of UniProt Q9UQM7 (whole entry, looked up): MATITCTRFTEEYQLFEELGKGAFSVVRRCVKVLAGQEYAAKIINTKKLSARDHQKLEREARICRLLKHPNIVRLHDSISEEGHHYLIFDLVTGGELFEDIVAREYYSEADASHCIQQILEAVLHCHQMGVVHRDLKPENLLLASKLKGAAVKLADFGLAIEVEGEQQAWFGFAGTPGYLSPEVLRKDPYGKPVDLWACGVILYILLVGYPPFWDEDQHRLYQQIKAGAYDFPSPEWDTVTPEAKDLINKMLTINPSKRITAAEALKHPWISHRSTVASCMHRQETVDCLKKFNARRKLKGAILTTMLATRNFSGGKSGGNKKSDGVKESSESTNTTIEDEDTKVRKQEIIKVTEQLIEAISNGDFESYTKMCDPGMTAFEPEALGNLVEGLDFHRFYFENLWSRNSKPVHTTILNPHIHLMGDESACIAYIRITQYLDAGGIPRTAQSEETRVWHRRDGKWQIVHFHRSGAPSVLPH
Compound	inhibition [%]
C[C@@H]1O[C@@H](O[C@H]2[C@H](O[C@H]3CC[C@@]4(C)[C@@H](CC[C@]5(C)[C@@H]4CC=C4[C@@H]6CC(C)(C)CC[C@]6(C(=O)O[C@@H]6O[C@H](CO[C@@H]7O[C@H](CO)[C@@H](O)[C@H](O)[C@H]7O)[C@@H](O)[C@H](O)[C@H]6O)CC[C@]45C)[C@]3(C)CO)OC[C@H](O)[C@@H]2O)[C@H](O)[C@H](O[C@@H]2O[C@H](CO)[C@@H](O[C@@H]3O[C@H](CO)[C@@H](O)[C@H](O)[C@H]3O)[C@H](O)[C@H]2O)[C@H]1O	-19
O=c1[nH]cnc2nc[nH]c12	50
O=C(O)C[C@H](C(=O)O)[C@H]1c2c(cc(O)c(O)c2O)C(=O)O[C@@H]1C(=O)O	-37
C[C@@]12C[C@@]3(O)O[C@@H](O1)[C@]1(COC(=O)c4ccc(O)cc4)[C@H]3C[C@@]12O[C@@H]1O[C@H](CO)[C@@H](O)[C@H](O)[C@H]1O	24
Cc1c(C(C)C)c(=O)n(-c2ccccc2)n1C	-13
COc1cccc(CCc2ccccc2OCC(CN(C)C)OC(=O)CCC(=O)O)c1 (stereo not shown)	-3
CC[C@H](C)[C@H](N)C(=O)N[C@@H](C)C(=O)N[C@@H](CCCN=C(N)N)C(=O)N[C@@H](CCCN=C(N)N)C(=O)N[C@@H](Cc1cnc[nH]1)C(=O)N1CCC[C@H]1C(=O)N[C@@H](Cc1ccc(O)cc1)C(=O)N[C@@H](Cc1ccccc1)C(=O)N[C@@H](CC(C)C)C(=O)O	8
COc1ccc(-c2oc3c(CC=C(C)C)c(O[C@@H]4O[C@H](CO)[C@@H](O)[C@H](O)[C@H]4O)cc(O)c3c(=O)c2O[C@@H]2O[C@@H](C)[C@H](O)[C@@H](O)[C@H]2O)cc1	31
C[C@@H]1CC[C@@]2(OC1)O[C@H]1C[C@H]3[C@@H]4CC=C5C[C@@H](O[C@@H]6O[C@H](CO)[C@@H](O)[C@H](O)[C@H]6O[C@@H]6O[C@@H](C)[C@H](O)[C@@H](O)[C@H]6O)CC[C@]5(C)[C@H]4CC[C@]3(C)[C@@]1(O)[C@@H]2C	-12
CC(C)c1nc(CN(C)C(=O)N[C@H](C(=O)N[C@@H](Cc2ccccc2)C[C@H](O)[C@H](Cc2ccccc2)NC(=O)OCc2cncs2)C(C)C)cs1	-14
NC(CCS)C(=O)O (racemic)	12
CC(=O)O[C@H]1C[C@@H]2CC[C@@H]3[C@H](CC[C@@]4(C)[C@H]3C[C@H]([N+]3(C)CCCCC3)[C@@H]4OC(C)=O)[C@@]2(C)C[C@@H]1[N+]1(C)CCCCC1	-2
O=C(CO)[C@@H](O)[C@H](O)[C@H](O)COP(=O)(O)O	-8
CC(=O)c1ccc(O)cc1C	0
C[C@@H]1CC[C@]2(C(=O)O)CC[C@]3(C)C(=CC[C@@H]4[C@@]5(C)CC[C@H](O)[C@](C)(C(=O)O)[C@@H]5CC[C@]43C)[C@@H]2[C@]1(C)O	-24

Set 2 — effect on: enzyme activity; action: inhibitor; concentration: 0.5 µM; baseline: control
Target: Inhibitor of nuclear factor kappa-B kinase subunit alpha (CHUK, Homo sapiens, UniProt O15111)
Chain of UniProt O15111 (whole entry, looked up): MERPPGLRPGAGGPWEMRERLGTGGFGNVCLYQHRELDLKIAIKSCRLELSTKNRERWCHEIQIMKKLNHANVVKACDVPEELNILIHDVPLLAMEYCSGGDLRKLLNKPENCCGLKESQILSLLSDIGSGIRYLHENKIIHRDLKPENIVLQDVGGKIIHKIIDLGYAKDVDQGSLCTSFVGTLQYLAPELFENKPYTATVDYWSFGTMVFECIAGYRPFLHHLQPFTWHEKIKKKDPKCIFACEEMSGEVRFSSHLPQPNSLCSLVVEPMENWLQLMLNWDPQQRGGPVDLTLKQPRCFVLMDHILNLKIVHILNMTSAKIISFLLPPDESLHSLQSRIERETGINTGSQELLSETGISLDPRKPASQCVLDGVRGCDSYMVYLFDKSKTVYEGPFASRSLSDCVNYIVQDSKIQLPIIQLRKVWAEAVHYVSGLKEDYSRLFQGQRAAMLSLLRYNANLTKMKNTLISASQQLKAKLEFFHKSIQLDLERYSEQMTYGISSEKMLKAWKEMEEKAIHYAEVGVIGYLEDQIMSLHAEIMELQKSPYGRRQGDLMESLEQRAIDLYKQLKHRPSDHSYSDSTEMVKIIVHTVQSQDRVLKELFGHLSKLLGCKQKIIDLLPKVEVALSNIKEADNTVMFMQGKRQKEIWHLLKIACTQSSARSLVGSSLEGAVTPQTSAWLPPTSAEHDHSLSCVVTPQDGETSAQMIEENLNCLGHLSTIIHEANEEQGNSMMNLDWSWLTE
Compound	remaining activity
O=C1NC(=O)C(c2c[nH]c3ccccc23)=C1c1c[nH]c2ccccc12	93.4%
CC#CC(=O)Nc1cc2c(Nc3ccc(F)c(Cl)c3)ncnc2cn1	92.1%
CC[n+]1c(/C=C/N(C)c2ccccc2)n(-c2ccccc2)c2ccc(-c3nc4ccccc4s3)cc21	86%
O=C1Cc2c([nH]c3ccc([N+](=O)[O-])cc23)-c2ccccc2N1	103%
Nc1nc(Nc2ccc(S(N)(=O)=O)cc2)nn1C(=O)c1c(F)cccc1F	99%
Nc1nccc(-c2c(-c3ccc(F)cc3)ncn2C2CCNCC2)n1	102%
Cc1cncc2cccc(S(=O)(=O)N3CCCN(C(=O)CN)C[C@@H]3C)c12	105%
Fc1ccc(-c2nc3n(c2-c2ccncc2)CCS3)cc1	104%
CC(C)(C)n1nc(Cc2cccc3ccccc23)c2c(N)ncnc21	94%
CSc1nc(-c2ccnc(N[C@@H](C)c3ccccc3)c2)c(-c2ccc(F)cc2)[nH]1 (racemic)	98.4%
O=S(=O)(NCCNC/C=C/c1ccc(Br)cc1)c1cccc2cnccc12	104%
COc1cc(Nc2c(C#N)cnc3cc(OCCCN4CCN(C)CC4)c(OC)cc23)c(Cl)cc1Cl	98.1%
CC(=O)c1ccc(N2CCOCC2)cc1O	96.2%
Nc1ncnc2c1cnn2-c1ccccc1	92.6%
CCCC(=O)Oc1ccc2[nH]c(C(=O)c3cc4ccccc4[nH]3)cc2c1	94.5%
Cc1ccc(NC2=CC(=O)c3sc(C)nc3C2=O)cc1	91.9%
COc1ccc(S(=O)(=O)N(CCO)c2ccccc2CN(C)CC=Cc2ccc(Cl)cc2)cc1	92.7%
Cc1cc(Nc2nc(-c3ccccc3)nc3ccccc23)n[nH]1	96.5%
N#CC(=C(N)Sc1ccc(N)cc1)c1ccccc1C(F)(F)F	102%
NC(=O)c1ccc(N(C(N)=O)c2c(F)cccc2F)nc1-c1ccc(F)cc1F	100%
Oc1ccc(Nc2nc(-c3ccc(Cl)cc3)cs2)cc1	104%

Set 3 — technique: competition with immobilised ligand; concentration: 1 µM
SMILES: CO[C@@H](C)c1c(Nc2ccc([C@H](N(C)C(=O)C3CCS(=O)(=O)CC3)C(F)(F)F)cc2)cnc2cc(Cl)nn12
target	effect on	remaining binding [%]
MAP3K10 (Homo sapiens, UniProt Q02779)	cell-free assay	71
RIPK2 (Homo sapiens, UniProt O43353)	cell-free assay	74
EGFR (Homo sapiens, UniProt P00533, G719S)	cell-free assay	100
MARK3 (Homo sapiens, UniProt P27448)	cell-free assay	100
ERBB2 (Homo sapiens, UniProt P04626)	cell-free assay	59
STK32C (Homo sapiens, UniProt Q86UX6)	cell-free assay	99
Mast/stem cell growth factor receptor Kit, autoinhibited (KIT, Homo sapiens, UniProt P10721)	cell-free assay	98
STK17A (Homo sapiens, UniProt Q9UEE5)	cell-free assay	87
TXK (Homo sapiens, UniProt P42681)	binding	87
PAK3 (Homo sapiens, UniProt O75914)	cell-free assay	100
KIT (Homo sapiens, UniProt P10721, T670I/V559D)	cell-free assay	86
PIK3CA (Homo sapiens, UniProt P42336, E545A)	cell-free assay	65
CDK16 (Homo sapiens, UniProt Q00536)	cell-free assay	66
PIP4K2B (Homo sapiens, UniProt P78356)	cell-free assay	100
PDPK1 (Homo sapiens, UniProt O15530)	cell-free assay	100
PRKACA (Homo sapiens, UniProt P17612)	cell-free assay	90
WEE2 (Homo sapiens, UniProt P0C1S8)	cell-free assay	88
KIT (Homo sapiens, UniProt P10721, L576P)	cell-free assay	98
NEK11 (Homo sapiens, UniProt Q8NG66)	cell-free assay	100
SBK3 (Homo sapiens, UniProt P0C264)	cell-free assay	84
DAPK2 (Homo sapiens, UniProt Q9UIK4)	cell-free assay	86
TNIK (Homo sapiens, UniProt Q9UKE5)	cell-free assay	100

Set 4 — concentration: 10 µM
Compound: Cc1sc(C(=O)NC2COC2)cc1-n1cc(NC(=O)Nc2c(F)cccc2Cl)cn1
target	effect on	technique	baseline	remaining activity [%]
Insulin receptor (INSR, Homo sapiens, UniProt P06213)	enzyme activity		untreated control	84.4
RPS6KA2 (Homo sapiens, UniProt Q15349)	enzyme activity		untreated control	94.1
IGF1R (Homo sapiens, UniProt P08069)	enzyme activity		untreated control	102
MYLK2 (Homo sapiens, UniProt Q9H1R3)	enzyme activity		untreated control	78.5
EPHB4 (Homo sapiens, UniProt P54760)	enzyme activity		untreated control	93.7
STK25 (Homo sapiens, UniProt O00506)	enzyme activity		untreated control	69.2
HIPK1 (Homo sapiens, UniProt Q86Z02)	enzyme activity		untreated control	115
LATS1 (Homo sapiens, UniProt O95835)	enzyme activity		untreated control	96.6
TSSK2 (Homo sapiens, UniProt Q96PF2)	enzyme activity		untreated control	84.2
MAPKAPK3 (Homo sapiens, UniProt Q16644)	enzyme activity		untreated control	108
CLK1 (Homo sapiens, UniProt P49759)	enzyme activity		untreated control	96.8
TAOK2 (Homo sapiens, UniProt Q9UL54)	kinase activity	kinase panel profiling		93.3

A few entries again (set 2):
Compound	remaining activity
Fc1ccc(-c2nc3n(c2-c2ccncc2)CCS3)cc1	104%
CC(C)(C)n1nc(Cc2cccc3ccccc23)c2c(N)ncnc21	94%
CSc1nc(-c2ccnc(N[C@@H](C)c3ccccc3)c2)c(-c2ccc(F)cc2)[nH]1 (racemic)	98.4%
O=S(=O)(NCCNC/C=C/c1ccc(Br)cc1)c1cccc2cnccc12	104%
COc1cc(Nc2c(C#N)cnc3cc(OCCCN4CCN(C)CC4)c(OC)cc23)c(Cl)cc1Cl	98.1%
CC(=O)c1ccc(N2CCOCC2)cc1O	96.2%
Nc1ncnc2c1cnn2-c1ccccc1	92.6%
CCCC(=O)Oc1ccc2[nH]c(C(=O)c3cc4ccccc4[nH]3)cc2c1	94.5%
Cc1ccc(NC2=CC(=O)c3sc(C)nc3C2=O)cc1	91.9%
COc1ccc(S(=O)(=O)N(CCO)c2ccccc2CN(C)CC=Cc2ccc(Cl)cc2)cc1	92.7%
